Measured values pooled from the literature.
Each line is one published result; not all experiments were run side by side. Several values in a cell are separate wells, animals, samples, runs or records.
Cell line: HeLa

| SMILES | assay | setting | how to read | measurement | result |
| --- | --- | --- | --- | --- | --- |
| NCCOc1cc(NC(=O)c2cc(Cl)cc(C(=O)Nc3cc(OCCN)c4ccccc4n3)n2)nc2ccccc12 | cell viability, CellTiter-Glo | 72 h | reference: IC50 HeLa over WI-38 | selectivity ratio | 1.1 |
| CCCC[N+]1=c2cc3c4cc2[O][Mn-2]1(=[C]=O)(=[C]=O)(=[C]=O)[n+]1ccc(cc1)C(=O)OCCOC(=O)c1cc[n+](cc1)[Mn-2](=[C]=O)(=[C]=O)(=[C]=O)([O]3)[N+]=4CCCC | MTT | 50 µM, 48 h, photolysed compound | – | viability reduction | ~77% |
| COc1cccc(CNC[C@@](O)(COCc2ccccc2)[C@@H]2CC[C@@H](C)C[C@H]2OCc2ccccc2)c1 | cell growth or viability, MTT | 30 µM, 72 h | – | inhibition | 101% |
| CCCC[N+]1=c2cc3c4cc2[O][Mn-2]1(=[C]=O)(=[C]=O)(=[C]=O)[n+]1ccc(cc1)C(=O)NCCNC(=O)c1cc[n+](cc1)[Mn-2](=[C]=O)(=[C]=O)(=[C]=O)([O]3)[N+]=4CCCC | MTT | 50 µM, 48 h, photolysed compound | – | viability reduction | 89% |
| Clc1cc(NCc2ccco2)c2cccc(OCC3COCCO3)c2n1 (centres unmarked) | splicing reporter, measured: GLA | 10 µM, 18 h | – | GFP/RFP ratio | 3.5 |
| CCCCCCc1cccc([C@H](O)C[C@H](CO)NC(=O)CCCCCCCCCCBr)c1 | CERT activity, HPLC-MS/MS lipidomics, measured: sphingomyelin 20 | 1 µM, 24 h, not cell-number normalised | – | sphingomyelin level | 4410 pmol/sample and 3100 pmol/sample and 4590 pmol/sample |
| O=C1NCC(COc2cccc3c(NCc4ccco4)cc(Cl)nc23)O1 (centres unmarked) | splicing reporter, measured: GLA | 10 µM, 18 h | – | GFP/RFP ratio | 4.51 |
| CSc1cc(C)[nH]c(=O)c1CNC(=O)c1c(C)n(C(C)C2CCC(NC3(C)COC3)CC2)c2ccccc12 (centres unmarked) | histone methylation reduction, AlphaLISA, measured: H3K27me3 | 72 h | – | EC50 | 0.002 µM |
| CCC(=CCc1c(O)cc2c(c1O)C(=O)CC(c1ccc(OC)cc1O)O2)CC (centres unmarked) | cell growth or viability, MTT | 100 µM, 48 h | – | inhibition | 99% |
| COc1ccc(CNC[C@@](O)(COCc2ccc(OC)cc2)[C@@H]2CC[C@@H](C)C[C@H]2OCc2ccc(OC)cc2)cc1 | cell growth or viability, MTT | 10 µM, 72 h | – | inhibition | 99.2% |
| CCCCCCCCCCCCCC(=S)NCCCC[C@H](NC(=O)OCc1ccccc1)C(=O)Nc1ccccc1 | cell growth or viability, MTT | 72 h | – | EC50 | 1.87 to 11.5 µM |
| COc1ccc(COC[C@](O)(CNCc2ccc(F)cc2)[C@@H]2CC[C@@H](C)C[C@H]2OCc2ccc(OC)cc2)cc1 | cell growth or viability, MTT | 10 µM, 72 h | – | inhibition | 97.2% |
| CCCCCCCCCCCC(=O)N[C@@H](CO)C[C@@H](O)c1cccc(CCCCCC)c1 | CERT activity, HPLC-MS/MS lipidomics, measured: sphingomyelin 22 | 1 µM, 24 h, not cell-number normalised | – | sphingomyelin level | 29200 pmol/sample and 40800 pmol/sample and 30700 pmol/sample |
| CCC(=CCc1c(O)cc2c(c1O)C(=O)CC(c1cc(O)ccc1OC)O2)CC (centres unmarked) | cell growth or viability, MTT | 3.125 µM, 48 h | – | inhibition | 3.03% |
| COc1ccc(CNC[C@@](O)(COCc2ccccc2)[C@@H]2CC[C@@H](C)C[C@H]2OCc2ccccc2)cc1 | cell growth or viability, MTT | 10 µM, 72 h | – | inhibition | 95.8% |
| CCC(=CCc1c(O)cc2c(c1O)C(=O)CC(c1cc(OC)ccc1O)O2)CC (centres unmarked) | cell growth or viability, MTT | 50 µM, 48 h | – | inhibition | 26.5% |

| SMILES | assay | setting | how to read | measurement | result |
| --- | --- | --- | --- | --- | --- |
| C[C@@H]1CC[C@@H]([C@](O)(CNCc2ccc(F)cc2)COCc2ccccc2)[C@H](OCc2ccccc2)C1 | cell growth or viability, MTT | 30 µM, 72 h | – | inhibition | 98.9% |
| N#C[Se]CCCCCCOc1ccc2c(-c3ccccc3)cc(=O)oc2c1 | cell growth or viability, SRB | – | – | GI50 | 11 µM |
| COc1ccc(C2CC(=O)c3c(cc(O)c(CC=C(C)C)c3O)O2)cc1 (centres unmarked) | cell growth or viability, MTT | 100 µM, 48 h | – | inhibition | 22% |
| CCCCCCCCCCCCCC(=S)NCCCC[C@H](NS(C)(=O)=O)C(=O)N[C@H](C)C(=O)N[C@@H](CCCNC(=N)N)C(N)=O | cell growth or viability, MTT | 72 h | – | EC50 | 18.8 to 32.1 µM |
| CCC(=CCc1c(O)cc2c(c1O)C(=O)CC(c1ccc(O)cc1OC)O2)CC (centres unmarked) | cell growth or viability, MTT | 6.25 µM, 48 h | – | inhibition | 19.8% |
| C[C@@H]1CC[C@@H]([C@@](O)(CNCc2ccccc2F)COCc2ccccc2)[C@H](OCc2ccccc2)C1 | cell growth or viability, MTT | 10 µM, 72 h | – | inhibition | 83% |
| O=C(CCCCCOc1ccc2ccccc2c1)N[C@@H](CO)C[C@@H](O)c1ccc(-c2ccccc2)cc1 | CERT activity, HPLC-MS/MS lipidomics, measured: hexosylceramide 24:1 | 1 µM, 24 h, not cell-number normalised | – | hexosylceramide level | 18500 pmol/sample and 20200 pmol/sample and 19500 pmol/sample |
| CCN(C(=O)c1cc(F)ccc1Oc1nncnc1N1CCC2(C1)CN([C@H](CCCN(C)CCOC)C(C)C)C2)C(C)C | cell growth or viability | 72 h | – | GI50 | > 10 µM |
| CCCCCCc1cccc([C@H](O)C[C@H](CO)NC(=O)CCCCCOc2ccc3ccccc3c2)c1 | CERT activity, HPLC-MS/MS lipidomics, measured: ceramide 20 | 1 µM, 24 h, not cell-number normalised | – | ceramide level | 85 pmol/sample and 130 pmol/sample and 108 pmol/sample |
| COc1cccc2c1cc1c3c(cc4c(c32)OCO4)[C@@H]2c3c4c5c(cc6c(c5c5cccc(OC)c35)OCO6)CCN4[C@@H]2N1C (racemic) | cytotoxicity, MTT | 50 µg/mL, 48 h | – | inhibition | < 50% |
| CCC(=CCc1c(O)cc2c(c1O)C(=O)CC(c1ccc(O)c(OC)c1)O2)CC (centres unmarked) | cell growth or viability, MTT | 25 µM, 48 h | – | inhibition | 78.5% |
| COc1ccccc1CNC[C@@](O)(COCc1ccccc1)[C@@H]1CC[C@@H](C)C[C@H]1OCc1ccccc1 | cell growth or viability, MTT | 10 µM, 72 h | – | inhibition | 95.6% |
| CCC(=CCc1c(O)cc2c(c1O)C(=O)CC(c1c(O)cccc1OC)O2)CC (centres unmarked) | cell growth or viability, MTT | 50 µM, 48 h | – | inhibition | 40.9% |
| CC(C)(C)c1ccc([C@H](O)C[C@H](CO)NC(=O)CCCCCOc2ccc3ccccc3c2)cc1 | CERT activity, HPLC-MS/MS lipidomics, measured: ceramide 22 | 1 µM, 24 h, not cell-number normalised | – | ceramide level | 2430 pmol/sample and 2680 pmol/sample and 1230 pmol/sample |
| CCC(=CCc1c(O)cc2c(c1O)C(=O)CC(c1ccc(OC)c(O)c1)O2)CC (centres unmarked) | cell growth or viability, MTT | 12.5 µM, 48 h | – | inhibition | 33.8% |
| C[C@@H]1CC[C@@H]([C@@](O)(CNCc2ccc(F)cc2)COCc2ccc(F)cc2)[C@H](OCc2ccc(F)cc2)C1 | cell growth or viability, MTT | 30 µM, 72 h | – | inhibition | 94.5% |

Some of these lines once more:
| SMILES | assay | setting | how to read | measurement | result |
| --- | --- | --- | --- | --- | --- |
| Clc1cc(NCc2ccco2)c2cccc(OCC3COCCO3)c2n1 (centres unmarked) | splicing reporter, measured: GLA | 10 µM, 18 h | – | GFP/RFP ratio | 3.5 |
| CCCC[N+]1=c2cc3c4cc2[O][Mn-2]1(=[C]=O)(=[C]=O)(=[C]=O)[n+]1ccc(cc1)C(=O)OCCOC(=O)c1cc[n+](cc1)[Mn-2](=[C]=O)(=[C]=O)(=[C]=O)([O]3)[N+]=4CCCC | MTT | 50 µM, 48 h, photolysed compound | – | viability reduction | ~77% |
| COc1ccc(COC[C@](O)(CNCc2ccc(F)cc2)[C@@H]2CC[C@@H](C)C[C@H]2OCc2ccc(OC)cc2)cc1 | cell growth or viability, MTT | 10 µM, 72 h | – | inhibition | 97.2% |
